Measured values from different studies.
Protocols differ between the studies behind these lines. ± marks the error that the study gave.
gag-pol reverse transcriptase RNase H: Gag-Pol polyprotein, reverse transcriptase RNase H (gag-pol, Human immunodeficiency virus 1, UniProt P03366)
CELA1: Chymotrypsin-like elastase family member 1 (CELA1, Sus scrofa, UniProt P00772)
Sequence of UniProt P00772 (whole entry, looked up): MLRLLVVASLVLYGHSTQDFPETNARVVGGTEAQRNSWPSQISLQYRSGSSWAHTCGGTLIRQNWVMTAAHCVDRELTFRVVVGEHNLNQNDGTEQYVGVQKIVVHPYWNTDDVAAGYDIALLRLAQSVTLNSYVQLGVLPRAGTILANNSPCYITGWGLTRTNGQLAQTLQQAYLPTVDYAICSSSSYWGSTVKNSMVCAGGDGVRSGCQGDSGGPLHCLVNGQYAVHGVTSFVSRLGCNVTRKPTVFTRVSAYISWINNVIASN
topA: DNA topoisomerase 1 (topA, Escherichia coli, UniProt P06612)
Sequence of UniProt P06612 (whole entry, looked up): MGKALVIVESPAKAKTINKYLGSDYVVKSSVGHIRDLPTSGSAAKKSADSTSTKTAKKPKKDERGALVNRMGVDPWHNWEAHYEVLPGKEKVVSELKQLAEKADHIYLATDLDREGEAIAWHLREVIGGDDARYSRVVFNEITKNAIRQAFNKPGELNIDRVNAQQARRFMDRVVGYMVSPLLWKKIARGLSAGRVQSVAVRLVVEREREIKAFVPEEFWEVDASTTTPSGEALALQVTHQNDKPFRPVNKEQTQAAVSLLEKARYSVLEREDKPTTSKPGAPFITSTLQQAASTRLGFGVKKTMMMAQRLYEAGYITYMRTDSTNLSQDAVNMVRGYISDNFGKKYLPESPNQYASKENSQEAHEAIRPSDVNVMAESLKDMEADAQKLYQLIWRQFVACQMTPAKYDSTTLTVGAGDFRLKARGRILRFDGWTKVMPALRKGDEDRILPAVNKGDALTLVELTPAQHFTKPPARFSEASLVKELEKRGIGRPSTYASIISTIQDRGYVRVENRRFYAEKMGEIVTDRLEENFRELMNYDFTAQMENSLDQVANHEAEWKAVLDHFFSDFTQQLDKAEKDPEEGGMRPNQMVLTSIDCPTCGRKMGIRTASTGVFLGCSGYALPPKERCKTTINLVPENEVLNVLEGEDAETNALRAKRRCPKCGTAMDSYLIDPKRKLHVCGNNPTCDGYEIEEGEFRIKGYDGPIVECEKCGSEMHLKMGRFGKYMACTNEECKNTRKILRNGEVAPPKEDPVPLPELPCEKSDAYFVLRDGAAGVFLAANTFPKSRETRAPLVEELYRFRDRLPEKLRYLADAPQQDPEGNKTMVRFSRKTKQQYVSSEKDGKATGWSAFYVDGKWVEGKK
Genome polyprotein NS2B-NS3 protease: Genome polyprotein, NS2B-NS3 protease (ZIKV, UniProt A0A024B7W1)
Sequence of UniProt A0A024B7W1 (whole entry, looked up): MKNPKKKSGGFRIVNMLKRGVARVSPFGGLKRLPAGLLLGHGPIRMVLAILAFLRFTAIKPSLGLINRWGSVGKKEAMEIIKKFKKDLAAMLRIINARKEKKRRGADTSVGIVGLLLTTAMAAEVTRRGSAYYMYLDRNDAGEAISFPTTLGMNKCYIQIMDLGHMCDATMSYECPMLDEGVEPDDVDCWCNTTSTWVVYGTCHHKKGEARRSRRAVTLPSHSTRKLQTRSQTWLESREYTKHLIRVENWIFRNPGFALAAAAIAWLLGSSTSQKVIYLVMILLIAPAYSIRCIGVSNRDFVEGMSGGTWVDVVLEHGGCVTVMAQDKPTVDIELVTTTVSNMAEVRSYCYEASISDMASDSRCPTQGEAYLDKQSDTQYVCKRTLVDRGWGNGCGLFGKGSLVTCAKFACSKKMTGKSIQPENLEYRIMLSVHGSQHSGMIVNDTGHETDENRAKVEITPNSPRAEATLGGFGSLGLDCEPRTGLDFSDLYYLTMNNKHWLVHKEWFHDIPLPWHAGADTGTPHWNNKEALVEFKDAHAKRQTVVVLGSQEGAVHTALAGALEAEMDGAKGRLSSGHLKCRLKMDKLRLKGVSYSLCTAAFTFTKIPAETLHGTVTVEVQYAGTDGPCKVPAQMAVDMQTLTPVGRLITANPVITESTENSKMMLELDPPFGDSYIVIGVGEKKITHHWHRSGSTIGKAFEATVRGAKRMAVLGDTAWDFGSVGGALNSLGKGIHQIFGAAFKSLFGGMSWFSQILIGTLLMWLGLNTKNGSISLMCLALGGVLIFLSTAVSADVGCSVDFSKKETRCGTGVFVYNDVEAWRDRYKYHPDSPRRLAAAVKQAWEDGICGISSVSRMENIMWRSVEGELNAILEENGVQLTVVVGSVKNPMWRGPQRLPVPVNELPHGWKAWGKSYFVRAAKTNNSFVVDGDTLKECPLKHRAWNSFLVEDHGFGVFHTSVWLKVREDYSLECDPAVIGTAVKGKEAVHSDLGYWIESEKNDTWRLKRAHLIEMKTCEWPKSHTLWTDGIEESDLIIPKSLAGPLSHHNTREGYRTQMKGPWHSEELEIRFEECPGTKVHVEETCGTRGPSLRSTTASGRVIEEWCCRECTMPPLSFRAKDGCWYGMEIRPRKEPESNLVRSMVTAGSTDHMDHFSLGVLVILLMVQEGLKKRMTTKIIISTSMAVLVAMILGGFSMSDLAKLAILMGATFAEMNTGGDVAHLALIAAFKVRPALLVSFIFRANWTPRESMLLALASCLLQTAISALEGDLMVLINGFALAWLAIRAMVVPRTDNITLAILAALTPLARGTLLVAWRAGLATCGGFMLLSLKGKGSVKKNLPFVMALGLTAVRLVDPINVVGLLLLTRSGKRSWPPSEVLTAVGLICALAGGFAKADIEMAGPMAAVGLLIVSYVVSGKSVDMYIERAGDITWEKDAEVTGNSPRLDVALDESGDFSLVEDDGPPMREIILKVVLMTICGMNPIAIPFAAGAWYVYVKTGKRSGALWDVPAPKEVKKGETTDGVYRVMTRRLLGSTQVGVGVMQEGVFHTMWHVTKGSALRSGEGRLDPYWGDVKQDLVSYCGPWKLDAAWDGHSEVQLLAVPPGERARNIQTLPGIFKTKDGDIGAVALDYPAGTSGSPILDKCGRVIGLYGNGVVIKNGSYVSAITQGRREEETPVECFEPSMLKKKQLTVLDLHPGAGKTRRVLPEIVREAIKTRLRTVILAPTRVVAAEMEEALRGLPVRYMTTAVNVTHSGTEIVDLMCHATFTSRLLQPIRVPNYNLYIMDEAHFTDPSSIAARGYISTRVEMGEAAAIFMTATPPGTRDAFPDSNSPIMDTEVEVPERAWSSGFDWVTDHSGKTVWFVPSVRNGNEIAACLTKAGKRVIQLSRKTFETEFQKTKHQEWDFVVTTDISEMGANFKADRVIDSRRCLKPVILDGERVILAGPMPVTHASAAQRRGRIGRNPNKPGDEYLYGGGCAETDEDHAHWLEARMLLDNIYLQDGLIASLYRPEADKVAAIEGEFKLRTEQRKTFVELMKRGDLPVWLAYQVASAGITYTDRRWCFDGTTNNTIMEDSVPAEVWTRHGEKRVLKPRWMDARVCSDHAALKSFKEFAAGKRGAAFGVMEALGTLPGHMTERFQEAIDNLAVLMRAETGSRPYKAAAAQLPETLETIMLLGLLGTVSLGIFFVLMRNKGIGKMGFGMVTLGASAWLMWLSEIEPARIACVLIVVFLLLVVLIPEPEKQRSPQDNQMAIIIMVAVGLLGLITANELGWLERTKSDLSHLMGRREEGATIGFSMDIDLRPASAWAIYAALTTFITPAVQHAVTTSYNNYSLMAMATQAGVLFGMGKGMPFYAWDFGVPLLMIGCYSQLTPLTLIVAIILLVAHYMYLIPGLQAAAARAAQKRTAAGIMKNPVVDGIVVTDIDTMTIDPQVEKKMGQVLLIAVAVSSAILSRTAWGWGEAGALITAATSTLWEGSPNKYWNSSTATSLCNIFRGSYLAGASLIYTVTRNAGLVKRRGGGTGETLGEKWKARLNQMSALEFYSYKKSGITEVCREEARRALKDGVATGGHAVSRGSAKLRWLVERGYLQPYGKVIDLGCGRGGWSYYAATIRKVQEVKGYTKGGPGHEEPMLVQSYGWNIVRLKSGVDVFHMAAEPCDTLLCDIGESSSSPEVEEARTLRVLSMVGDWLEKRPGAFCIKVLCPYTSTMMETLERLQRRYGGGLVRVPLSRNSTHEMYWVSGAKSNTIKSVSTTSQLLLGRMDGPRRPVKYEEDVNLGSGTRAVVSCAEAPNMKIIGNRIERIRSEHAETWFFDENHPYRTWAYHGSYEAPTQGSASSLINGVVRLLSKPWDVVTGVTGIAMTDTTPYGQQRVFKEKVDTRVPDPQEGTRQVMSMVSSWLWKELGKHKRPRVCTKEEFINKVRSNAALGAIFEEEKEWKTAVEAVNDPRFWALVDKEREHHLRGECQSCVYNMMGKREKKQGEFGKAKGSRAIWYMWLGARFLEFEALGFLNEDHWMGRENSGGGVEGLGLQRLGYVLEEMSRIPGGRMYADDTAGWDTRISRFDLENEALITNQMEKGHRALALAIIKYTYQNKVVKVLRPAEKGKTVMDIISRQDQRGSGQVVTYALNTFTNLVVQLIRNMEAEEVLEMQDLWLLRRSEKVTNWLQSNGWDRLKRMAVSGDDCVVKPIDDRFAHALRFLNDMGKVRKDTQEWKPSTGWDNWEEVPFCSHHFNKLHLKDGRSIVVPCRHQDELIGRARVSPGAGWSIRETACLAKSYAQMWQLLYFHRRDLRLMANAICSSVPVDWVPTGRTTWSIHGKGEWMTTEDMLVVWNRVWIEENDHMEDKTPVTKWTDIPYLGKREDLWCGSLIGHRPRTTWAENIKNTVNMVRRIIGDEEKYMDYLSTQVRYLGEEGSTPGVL
Sequence of UniProt P27338 (whole entry, looked up): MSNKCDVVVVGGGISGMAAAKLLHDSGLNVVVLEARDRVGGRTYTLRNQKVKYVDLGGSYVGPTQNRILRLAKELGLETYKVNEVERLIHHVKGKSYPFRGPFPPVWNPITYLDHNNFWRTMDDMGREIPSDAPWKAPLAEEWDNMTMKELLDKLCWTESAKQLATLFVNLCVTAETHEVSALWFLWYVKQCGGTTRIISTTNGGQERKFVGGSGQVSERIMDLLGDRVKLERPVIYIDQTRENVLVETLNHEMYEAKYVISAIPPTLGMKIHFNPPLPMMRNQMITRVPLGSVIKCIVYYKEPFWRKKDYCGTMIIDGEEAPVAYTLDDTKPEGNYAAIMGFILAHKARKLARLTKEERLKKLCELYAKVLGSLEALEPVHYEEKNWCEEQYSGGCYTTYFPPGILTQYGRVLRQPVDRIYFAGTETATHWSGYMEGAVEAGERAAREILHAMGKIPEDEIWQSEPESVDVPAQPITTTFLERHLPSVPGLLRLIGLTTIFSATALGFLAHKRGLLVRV

[Cl-].[Na+]  IC50 (Beta-lactamase OXA-10 (Pseudomonas aeruginosa, UniProt P14489); enzyme activity, inhibitor; pH 7.2, with preincubation): 67000 µM
CCCCN1C(=O)C(C=CC=CC=C2C(=O)N(c3ccc(S(=O)(=O)O)cc3)N=C2C)C(=O)N(CCCC)C1=O  IC50 (SLC4A1 (Homo sapiens, UniProt P02730); chloride exchange, 36Cl flux; erythrocytes; 0 °C, equilibrium binding, added: 5 mM chloride both sides): 0.053 ± 0.004 µM
CNC(C)Cc1ccc2c(c1)OCO2 (racemic)  mood rating (visual analog scale, refers to: Friendly; human; oral, 0.75 mg/kg, mean over session, unit not given; relative to: pre-dose baseline): 5
CN(C)C(=O)C(CCN1CCC(O)(c2ccc(Cl)cc2)CC1)(c1ccccc1)c1ccccc1  IC50 (Calcium-activated potassium channel subunit alpha-1, with LRRC26 γ1 subunit (KCNMA1, Homo sapiens, UniProt Q12791); BK current, inhibitor, inside-out patch clamp; BKα/γ1 channels; asymptotic, strong depolarization, added: nominal 0 Ca2+): 2.1 ± 0.2 µM
FC(F)(F)Oc1ccc(-c2nc3cc4nc5ccccc5nc4cc3[nH]2)cc1  IC50 (Genome polyprotein, protease (dengue virus type 2, UniProt P29990); enzyme activity, inhibitor, fluorescence; pH 8.5): 71.9 µM
CC(C)c1ccc(O)c(=O)c(O)c1  IC50 (gag-pol reverse transcriptase RNase H): ~0.15 µM
CCCCCC[C@H]1C(=O)O[C@H](C)[C@H](NC(=O)c2cccc(NC=O)c2O)C(=O)O[C@@H](C)[C@@H]1OC(=O)CC(C)C  IC50 (Mt-cyb (Rattus norvegicus, UniProt P00159); mitochondrial respiration, inhibitor; saponin-permeabilized cortical neurons, middle-aged rats; added: glutamate, malate, succinate): 0.13 µM
Cc1sc2nc(-c3cccc(O)c3)[nH]c(=O)c2c1C  IC50 (gag-pol reverse transcriptase RNase H; RNase H activity, inhibitor, fluorescent RNA/DNA hybrid): > 50 µM
C/C=C(\NC(=O)[C@H](C)NC(=O)CCC)C(=O)N[C@@H]1C(=O)N[C@@H](CC(C)C)C(=O)N[C@H]2CC[C@@H](O)N(C2=O)[C@@H](Cc2ccccc2)C(=O)N(C)[C@@H](Cc2ccc(O)cc2)C(=O)N[C@@H](C(C)C)C(=O)O[C@@H]1C  IC50 (CELA1; enzyme activity, inhibitor; with preincubation): 0.54 µM
CN[C@@](C)(C[18F])C(=O)O  tracer uptake (MDA-MB-468 tumour model; host not given, bone; 2 h, tumour-bearing): 1.9 %ID/g
Phoxim oxon  IC50 (Carboxylesterase 1C (Ces1c, Rattus norvegicus, UniProt P10959); enzyme activity, inhibitor; rat, postnatal day 70, serum; added: p-nitrophenyl valerate): 0.0011 µM
Nc1ccc2c(c1)Oc1c(N3CC[C@H](N)C3)c(F)cc3c(=O)c(C(=O)O)cn-2c13  IC50 (topA; enzyme activity, inhibitor): 0.48 to 0.97 µM
O=C1NC(=S)N(c2ccc(F)cc2)C(=O)/C1=C/c1ccco1  IC50 (Cell death protein 3 (ced-3, Caenorhabditis elegans, UniProt P42573); enzyme activity, inhibitor; purified enzyme; added: 20 µM Ac-DEVD-AMC): 0.75 µM
Cc1c(Cc2ccccc2)c(=O)oc2cc(OS(C)(=O)=O)ccc12  IC50 (ALDH2 (Homo sapiens, UniProt P05091); enzyme activity, inhibitor, NADH formation; pH 7.5, 25 °C, 1% DMSO, added: propionaldehyde 100 µM, NAD+ 200 µM): > 100 µM
C/C=C1\NC(=O)[C@@H](NC(=O)[C@@H](NC(=O)[C@H](C)NC(=O)C/C(C)=C/Cl)C(C)C)[C@@H](C)OC(=O)[C@H](C(C)C)NC(=O)[C@H](Cc2ccc(O)cc2)N(C)C(=O)[C@H](Cc2ccccc2)N2C(=O)[C@H](CC[C@H]2O)NC1=O  IC50 (CELA1; enzyme activity, inhibitor, fluorescence; pH 7.4): 0.00205 µM
COc1cc(/C=C(\C#N)C(=O)Nc2nnc(C(F)(F)F)s2)ccc1OCc1ccc(C(F)(F)F)cc1C(F)(F)F  IC50 (PGC-1α/ERRα (human); reporter gene, antagonist, luciferase reporter; 18 h, 3000 cells/well): 3.09 µM
CC[C@H](C)[C@H](NC(=O)[C@@H](NC(=O)[C@@H](N)Cc1ccccc1)C(C)C)C(=O)N[C@@H](Cc1ccccc1)C(=O)N[C@@H](C)C(=O)N[C@@H](CS)C(=O)N[C@@H](CC(N)=O)C(=O)N[C@@H](Cc1ccccc1)C(=O)N[C@H](C(=O)O)C(C)C  IC50 (HLA class I histocompatibility antigen, A alpha chain, allele A*02:03 (Homo sapiens, UniProt P04439); peptide binding, radiolabelled peptide competition; added: radiolabelled standard peptide): 0.0065 µM
CCCCCc1cc(O)cc(O)c1C(=O)Oc1cc(CCCCC)c2c(c1)OC(C)(C)OC2=O  IC50 (topA; enzyme activity, inhibitor): > 1000 µM
CN1CCN(C2Cc3ccccc3Sc3ccc(Cl)cc32)CC1 (racemic)  IC50 (KCNK18 (Homo sapiens, UniProt Q7Z418); ion flux, inhibitor): 7.23 µM
O=C(O[C@@H]1Cc2c(O)cc(O)cc2O[C@@H]1c1cc(=O)c(O)c2c(O)c(O)cc([C@H]3Oc4cc(O)cc(O)c4C[C@H]3O)c2c1)c1cc(O)c(O)c(O)c1  IC50 (nuoF (Escherichia coli, UniProt P31979); deamino-NADH oxidase activity; 1100, membrane vesicles; added: 75 µM deamino-NADH): 15 µM
CC(=O)Nc1ccc(O)cn1  IC50 (Seed linoleate 13S-lipoxygenase-1 (Glycine max, UniProt P08170); enzyme activity, inhibitor; pH 9.2): 1620 µM
CSCC[C@@H]1NC(=O)[C@H](CC(=O)O)NC(=O)CNC(=O)[C@H](CCCNC(=N)N)NC(=O)[C@H](C)NC(=O)[C@H](CCC(=O)O)NC(=O)[C@H](CCCNC(=N)N)NC(=O)[C@@H]2CSSC[C@@H]3NC(=O)[C@H](CO)NC(=O)[C@H]([C@@H](C)O)NC(=O)[C@@H]4CCCN4C(=O)[C@H](C)NC(=O)[C@H](Cc4c[nH]c5ccccc45)NC(=O)[C@H](CC(=O)O)NC(=O)CNC(=O)[C@H](CCCNC(=N)N)NC(=O)CNC(=O)[C@H](CCC(N)=O)NC(=O)[C@@H]4CCCN4C(=O)[C@@H](NC(=O)CNC(=O)C(C)F)CSSC[C@H](NC(=O)CNC(=O)[C@H](C)NC(=O)[C@H](CC(C)C)NC(=O)[C@H](CSSC[C@@H](C(=O)NCC(N)=O)NC(=O)[C@H]([C@@H](C)O)NC(=O)[C@H](CCCNC(=N)N)NC(=O)[C@@H]4CCCN4C1=O)NC(=O)[C@H](CC(=O)O)NC(=O)[C@H](CO)NC(=O)[C@H](CC(=O)O)NC(=O)[C@H](CCC(N)=O)NC(=O)[C@H](CO)NC3=O)C(=O)N[C@@H](C(C)C)C(=O)N2 (stereo partly shown) [fluorine-18 labelled]  tissue uptake (nude mice U-87 MG xenograft, bone; intravenous, 1 h): 0.48 ± 0.21 %ID/g
CC(C)c1ccc2c(c1)CC[C@H]1[C@](C)(CN)CCC[C@]21C  IC50 (HFK normal keratinocytes; cell viability, MTS; 72 h): 8.4 ± 0.7 µM
O=C1OC2(c3cc(Cl)c(O)cc3Oc3cc(O)c(Cl)cc32)c2ccccc21  IC50 (Dual specificity protein phosphatase 5 (Homo sapiens, UniProt Q16690); phosphatase activity; 30 min, without DTT, added: pNPP): 206 ± 4.6 µM
CC(=O)c1cccc(NC(=O)C(=O)[C@H](CC(C)C)NC(=O)[C@H](CC(C)C)NC(=O)[C@H](CC(C)C)NC(=O)OCc2ccccc2)c1  IC50 (Proteasome component C5/PSMB5, chymotrypsin-like site (Homo sapiens, UniProt P20618+P28074); enzyme activity in cells, inhibitor): 0.0221 µM
C=CCN1CCC2(C)c3cc(O)ccc3CC1C2C (single isomer, unassigned; (+))  Ki (Tmem97 (Mus musculus, UniProt Q8VD00); ligand displacement, radioligand; cell membranes): 19 µM
O=S(=O)(O)Oc1ccc(-c2ccc(Cl)cc2)c(Cl)c1  IC50 (SULT2A1 (Homo sapiens, UniProt Q06520); enzyme activity, inhibitor, radiometric; pH 7.4): 45.8 µM
OC(c1cc(C(F)(F)F)nc2c(C(F)(F)F)cccc12)C1CCCCN1 (stereo not shown)  IC50 (Beta-glucuronidase (uidA, Escherichia coli, UniProt P05804); enzyme activity, inhibitor; Escherichia coli live cells; 2 h, 37 °C): 5.96 ± 1.53 µM
CCCCCCCCCCC(O)C1CCC(C2CCC(C(O)CCCCCCCCCCC(O)CC3=CC(C)OC3=O)O2)O1 (stereo not shown)  IC50 (nuoB/nuoH/nuoC (Escherichia coli, UniProt P0AFC7+P0AFD4+P33599); NADH:decylubiquinone oxidoreductase, inhibitor; pH 7.0): 0.011 µM
Oc1ccc(-c2cc(-c3ccc(O)cc3)c(-c3ccc(O)cc3)[se]2)cc1  IC50 (ESR2 (Homo sapiens, UniProt Q92731); antagonist; HEK293T; added: estradiol 10 nM): 0.111 µM
CC(C)C[C@H](NC(=O)[C@H](C)NC(=O)[C@H](Cc1c[nH]c2ccccc12)NC(=O)[C@H](Cc1ccc(O)cc1)NC(=O)[C@H](C)NC(=O)[C@H](CC(C)C)NC(=O)[C@H](C)N)C(=O)O  IC50 (Transcriptional regulator ComR (Streptococcus mutans serotype c, UniProt Q8DWI6); Streptococcus mutans): 22 µM
O=C(O)c1cc(-c2ccccc2Cl)n[nH]1  IC50 (ALPL (Homo sapiens, UniProt P05186); enzyme activity, inhibitor, luminescence; added: 1 µM CDP-star, 100 mM DEA): 0.16 ± 0.008 µM
CO[C@H]1C[C@H](O[C@H]2CC[C@@]3(C)[C@H](CC[C@@H]4[C@@H]3CC[C@]3(C)[C@@H](C5=CC(=O)OC5)[C@@H](OC(C)=O)C[C@]43O)C2)O[C@@H](C)[C@@H]1O  IC50 (Na+/K+-ATPase (pig cerebral cortex); enzyme activity, inhibitor, phosphate release colorimetric; 30 min, 37 °C, added: ATP-Mg 3 mM): 2.61 ± 0.175 µM
NCc1ccc(-c2ncc(NCC3CCNCC3)nc2C(=O)Nc2ccc(Br)cc2)cc1  IC50 (Genome polyprotein NS2B-NS3 protease; inhibitor; Zika virus): 12.6 µM
CSCC[C@H](NC(=O)[C@H](CO)NC(=O)[C@H](CO)NC(=O)[C@H](CC(C)C)NC(=O)[C@H](Cc1c[nH]cn1)NC(=O)[C@H](CCCCN)NC(=O)[C@@H](Cc1c[nH]c2ccccc12)NC(=O)[C@H](CC(C)C)NC(=O)[C@H](CC(N)=O)NC(=O)[C@H](Cc1c[nH]cn1)NC(=O)[C@H](CCSC)NC(=O)[C@@H](N)Cc1ccccc1)C(=O)N[C@@H](CCC(=O)O)C(=O)N[C@@H](CCCNC(=N)N)C(=O)N[C@H](C(=O)N[C@@H](CCC(=O)O)C(=O)N[C@@H](Cc1c[nH]c2ccccc12)C(=O)N[C@@H](CC(C)C)C(=O)N[C@@H](CCCNC(=N)N)C(=O)N[C@@H](CCCCN)C(=O)N[C@@H](CCCCN)C(=O)N[C@@H](CC(C)C)C(=O)N[C@@H](CCC(N)=O)C(=O)N[C@@H](CC(=O)O)C(=O)N[C@H](C(=O)N[C@@H](Cc1c[nH]cn1)C(=O)N[C@@H](CC(N)=O)C(=O)N[C@@H](Cc1ccccc1)C(N)=O)C(C)C)C(C)C  IC50 (PTH1R (Homo sapiens, UniProt Q03431); cAMP generation, antagonist, GloSensor luciferase; SGS-72; added: LA-PTH 0.3 nM): 0.0102 ± 0.0019 µM
[123I]c1cncc(OC[C@@H]2CCN2)c1  tissue/plasma ratio (SPECT; human, frontal lobe; intravenous bolus plus infusion, 7.7 mCi; relative to: tissue over plasma): 27.9
COc1ccc(N(C(=O)Oc2c(C)cccc2C)c2ccnc(Nc3ccc(N4CCN(C)CC4)cc3)n2)c(OC)c1  IC50 (Proto-oncogene tyrosine-protein kinase Src, YEEI variant (SRC, Homo sapiens, UniProt P12931); enzyme activity; SRC-YEEI with pFAK peptide excess, added: ATP 100 µM): 1.36 µM
NCc1ccc(-c2ncc(OCC3CCNCC3)nc2-c2cccc3[nH]ccc23)cc1  IC50 (Genome polyprotein NS2B-NS3 protease; inhibitor; Zika virus): 7.1 µM
C[C@H]1CNCCc2ccc(Cl)cc21  CL/F (male Sprague-Dawley rat, plasma; subcutaneous, 0.5 mg/kg, single dose): 251 mL/min/kg
O=C(Nc1ccc([N+](=O)[O-])cc1[N+](=O)[O-])c1ccc2c(c1)OCO2  IC50 (MAOB (Homo sapiens, UniProt P27338); enzyme activity, inhibitor): 0.056 µM

Some of these lines once more:
O=C(O)c1cc(-c2ccccc2Cl)n[nH]1  IC50 (ALPL (Homo sapiens, UniProt P05186); enzyme activity, inhibitor, luminescence; added: 1 µM CDP-star, 100 mM DEA): 0.16 ± 0.008 µM
CC(C)C[C@H](NC(=O)[C@H](C)NC(=O)[C@H](Cc1c[nH]c2ccccc12)NC(=O)[C@H](Cc1ccc(O)cc1)NC(=O)[C@H](C)NC(=O)[C@H](CC(C)C)NC(=O)[C@H](C)N)C(=O)O  IC50 (Transcriptional regulator ComR (Streptococcus mutans serotype c, UniProt Q8DWI6); Streptococcus mutans): 22 µM
CC(C)c1ccc(O)c(=O)c(O)c1  IC50 (gag-pol reverse transcriptase RNase H): ~0.15 µM
Cc1c(Cc2ccccc2)c(=O)oc2cc(OS(C)(=O)=O)ccc12  IC50 (ALDH2 (Homo sapiens, UniProt P05091); enzyme activity, inhibitor, NADH formation; pH 7.5, 25 °C, 1% DMSO, added: propionaldehyde 100 µM, NAD+ 200 µM): > 100 µM
COc1ccc(N(C(=O)Oc2c(C)cccc2C)c2ccnc(Nc3ccc(N4CCN(C)CC4)cc3)n2)c(OC)c1  IC50 (Proto-oncogene tyrosine-protein kinase Src, YEEI variant (SRC, Homo sapiens, UniProt P12931); enzyme activity; SRC-YEEI with pFAK peptide excess, added: ATP 100 µM): 1.36 µM
CCCCN1C(=O)C(C=CC=CC=C2C(=O)N(c3ccc(S(=O)(=O)O)cc3)N=C2C)C(=O)N(CCCC)C1=O  IC50 (SLC4A1 (Homo sapiens, UniProt P02730); chloride exchange, 36Cl flux; erythrocytes; 0 °C, equilibrium binding, added: 5 mM chloride both sides): 0.053 ± 0.004 µM
